Assay results collected from several papers.
Protocols differ between the studies behind these lines. Several values in a cell are separate wells, animals, samples, runs or records. Numbers after ± are the reported error.

Compound = NC[C@@H](C(=O)Nc1ccc(-c2cn[nH]c2)cc1)c1ccccc1; assay = tonometry; system = NZW rabbit, magnetic bead-induced ocular hypertension; conditions = ocular, 0.1%, 32 h; endpoint = IOP; result = 29.1 mmHg
Compound = COC1OC(C)C(OC2OC(C)C(OS(=O)(=O)O)C(OC3OC(C)C(OC4OC(C)C(OS(=O)(=O)O)C(OC5OC(C)C(OC6OC(C)C(OS(=O)(=O)O)C(OC7OC(C)C(OC8OC(C)C(OS(=O)(=O)O)C(OC9OC(C)C(OC%10OC(C)C(OS(=O)(=O)O)C(OC%11OC(C)C(OC%12OC(C)C(OS(=O)(=O)O)C(OS(=O)(=O)O)C%12O)C(OS(=O)(=O)O)C%11O)C%10O)C(OS(=O)(=O)O)C9O)C8O)C(OS(=O)(=O)O)C7O)C6O)C(OS(=O)(=O)O)C5O)C4O)C(OS(=O)(=O)O)C3O)C2O)C(OS(=O)(=O)O)C1O (stereo not drawn); system = human plasma; conditions = 128 µg/mL; endpoint = prothrombin time; result = 14.7 ± 0.5 s
Compound = CCCCCCCCCCCCCCCC(=O)OCC(CSC[C@H](N)C(=O)N[C@@H](CO)C(=O)N[C@@H](CCCCN)C(=O)N[C@@H](CCCCN)C(=O)N[C@@H](CCCCN)C(=O)N[C@@H](CCCCN)C(=O)NCCCCCC(=O)N[C@@H](CCCCN)C(=O)N[C@@H](CC(C)C)C(=O)N[C@H](C(=O)N[C@@H](Cc1ccccc1)C(=O)N[C@@H](Cc1ccccc1)C(=O)N[C@@H](Cc1ccc2ccccc2c1)C(=O)O)C(C)C)OC(=O)CCCCCCCCCCCCCCC (stereo partly drawn); assay = thioflavin S staining; system = APP/PS1 transgenic mouse, hippocampus; conditions = intrahippocampal, 5 d, unit not given; scale = relative to: injected over adjacent side; endpoint = amyloid plaque load; result = 0.456 and 0.564 and 0.459 and 0.269 and 0.51
Compound = O=C(NS(=O)(=O)c1cccs1)c1cc2ccccc2n1Cc1ccc(Br)c2ccccc12; system = mouse, acute hyperuricaemia model, serum; conditions = oral, 2 mg/kg; scale = relative to: vehicle model; endpoint = serum uric acid decrease; result = 93.4%
Compound = Cc1cccc(C)c1CNc1cc(C(=O)N2CCC2)cn2c(C)c(C)nc12; assay = gastric acid secretion, inhibitor; system = rat, pylorus-ligated; conditions = oral, together with: histamine; endpoint = ED50; result = 0.66 mg/kg
Compound = CC(C)C[C@H](NC(=O)[C@H](CC(=O)O)NC(=O)CNC(=O)[C@@H](N)CCCNC(=N)N)C(=O)N[C@@H](C)C(=O)N[C@H](C(=O)N[C@@H](CC(C)C)C(=O)N[C@@H](CCCNC(=N)N)C(=O)N[C@@H](CCC(N)=O)C(=O)N[C@@H](CC(C)C)C(=O)N[C@@H](C)C(=O)N[C@@H](CCC(N)=O)C(=O)N[C@@H](CCC(=O)O)C(=O)N[C@@H](CC(=O)O)C(=O)NCC(=O)N[C@H](C(=O)N[C@H](C(=O)NCC(=O)N[C@H](C(=O)N[C@@H](CCCNC(=N)N)C(=O)NCCOCCOCCOCCOCCOCCOCCOCCOCCOCCOCCOCCOCCC(=O)N[C@@H](CS)C(N)=O)C(C)C)C(C)C)C(C)C)[C@@H](C)O; assay = ex vivo NIR imaging; system = NOD/SCID mice, xenograft, H2009 xenograft; conditions = intravenous, 30 µg, 24 h; scale = relative to: H460 xenograft; endpoint = fluorescence signal ratio; result = 40.4 and 121
Compound = COC1OC(C)C(OC2OC(C)C(OS(=O)(=O)O)C(OC3OC(C)C(OS(=O)(=O)O)C(OS(=O)(=O)O)C3OS(=O)(=O)O)C2OS(=O)(=O)O)C(OS(=O)(=O)O)C1OS(=O)(=O)O (stereo not drawn); system = human plasma; conditions = 128 µg/mL; scale = relative to: control; endpoint = prothrombin time prolongation; result = 1.01 fold
Compound = COc1cc2nc(N3CCN(C(=O)C4CC5(CC5)CO4)CC3)nc(N)c2cc1OC (stereo not drawn); system = male SHR rat; conditions = oral, 3 mg/kg, 120 min; scale = relative to: baseline; endpoint = diastolic blood pressure decrease; result = 28 mmHg
Compound = COC1OC(C)C(OC2OC(C)C(OS(=O)(=O)O)C(OC3OC(C)C(OC4OC(C)C(OS(=O)(=O)O)C(OC5OC(C)C(OC6OC(C)C(OS(=O)(=O)O)C(OS(=O)(=O)O)C6O)C(OS(=O)(=O)O)C5O)C4O)C(OS(=O)(=O)O)C3O)C2O)C(OS(=O)(=O)O)C1O (stereo not drawn); system = human plasma; conditions = 128 µg/mL; scale = relative to: control; endpoint = prothrombin time prolongation; result = 1.04 fold
Compound = COc1cc(O)ccc1CCC(c1ccc(O)cc1)c1cc2c(c(C)c1O)OC(c1ccc(O)cc1)CC2 (mixture of isomers); assay = refers to: 12-HETE; system = human whole blood; conditions = 30 µM, together with: Escherichia coli; endpoint = amount; result = 28700 ± 2840 pg/mL blood
Compound = COC1OC(C)C(OC2OC(C)C(OS(=O)(=O)O)C(OC3OC(C)C(OC4OC(C)C(OS(=O)(=O)O)C(OS(=O)(=O)O)C4OS(=O)(=O)O)C(OS(=O)(=O)O)C3OS(=O)(=O)O)C2OS(=O)(=O)O)C(OS(=O)(=O)O)C1OS(=O)(=O)O (stereo not drawn); system = human plasma; conditions = 128 µg/mL; scale = relative to: control; endpoint = prothrombin time prolongation; result = 1 fold
Compound = CC[C@H](C)[C@H](NC(=O)[C@@H](NC(=O)c1ccnc(Cl)c1Cl)C(C)(C)C)C(=O)N[C@H](C(=O)N[C@H](C(=O)N[C@H](C(=O)N[C@@H](CCC(N)=O)C(=O)N[C@@H](Cc1c[nH]cn1)C(=O)N[C@H](CC(C)C)C(=O)N[C@@H](CO)C(=O)NCCOCCOCC(=O)N[C@@H](CCCCNC(=O)CC[C@@H]1NC(=O)[C@@H](CCCNC(=N)N)NC(=O)[C@H](CCCNC(=N)N)NC(=O)[C@@H](CCCNC(=N)N)NC(=O)[C@H](CCCNC(=N)N)NC(=O)[C@H](Cc2ccc3ccccc3c2)NC(=O)[C@@H](Cc2ccccc2)NC1=O)C(N)=O)[C@@H](C)O)[C@@H](C)CC)C(C)(C)O; system = mouse, acute lung injury, LPS-induced; conditions = intravenous, 5 mg/kg, 16 h, together with: LPS 10 mg/kg i.p.; scale = relative to: vehicle; endpoint = serum TNF-alpha and IL-6 levels; result = decreased
Compound = COc1cnc2cccc(N3CCc4c(cc(Cn5ccnc5)cc4-c4cn(C)nc4C(F)(F)F)C3=O)c2c1; system = BALB/c nude mice, MV4-11 xenograft; conditions = intraperitoneal, 100 mg/kg, day 17; endpoint = tumour volume; result = 105 mm3 and 103 mm3 and 144 mm3 and 164 mm3 and 120 mm3
Compound = CN1C/C(=C\c2cc(Cl)c(O)c(Cl)c2)C(=O)/C(=C/c2cc(Cl)c(O)c(Cl)c2)C1; assay = ABTS scavenging; conditions = 20 min; endpoint = IC50; result = 224 µg/mL
Compound = CN1CCC[C@]1(C)/C=C/S(=O)(=O)NC(=O)Nc1c2c(cc3c1CCC3)CCC2; system = human, whole blood ex vivo; conditions = 50 mg twice daily, day 14, 12 h, multiple ascending dose, together with: LPS and ATP; endpoint = IL-1β inhibition; result = 99.1%
Compound = COC1OC(C)C(OS(=O)(=O)O)C(OC2OC(C)C(OS(=O)(=O)O)C(OC3OC(C)C(OS(=O)(=O)O)C(OC4OC(C)C(OS(=O)(=O)O)C(OC5OC(C)C(OS(=O)(=O)O)C(OC6OC(C)C(OS(=O)(=O)O)C(OS(=O)(=O)O)C6OS(=O)(=O)O)C5OS(=O)(=O)O)C4OS(=O)(=O)O)C3OS(=O)(=O)O)C2OS(=O)(=O)O)C1OS(=O)(=O)O (stereo not drawn); system = human plasma; conditions = 128 µg/mL; scale = relative to: control; endpoint = prothrombin time prolongation; result = 1.02 fold
Compound = CCN(C(=O)c1cc(F)ccc1Oc1nncnc1N1CCC2(C1)CN([C@H](CCCN(C)CCOC)C(C)C)C2)C(C)C; system = mouse, sample A AML PDX model; conditions = 100 mg/kg; endpoint = increase in life span; result = 149%
Compound = CN1CCCNC(=O)c2cccc(c2)C(=O)NCCCN(C)CCCNc2cccc3c2C(=O)c2cccc(c2C3=O)NCCC1; system = KSN/Slc nude mice, SAS xenograft; conditions = dose not given, day 0, group mean; endpoint = tumour volume; result = 71.7 mm3
Compound = COc1ccc2cc3[n+](cc2c1OCCCOC(=O)c1cscn1)CCc1cc2c(cc1-3)OCO2; assay = ELISA; system = HFD-fed C57BL/6 mouse; conditions = dose not given; endpoint = plasma PCSK9 level; result = decreased
Compound = Cc1cn(-c2cc(NC(=O)c3cc(C#Cc4cnc5c(Nc6cnn(C)c6)cccn45)c(C)cc3F)cc(C(C)(C)C#N)c2)cn1; assay = platelet aggregation; system = platelet-rich plasma; conditions = 1 µM, DMSO 130.6, together with: collagen 2 mg/mL; endpoint = lag time; result = 160 s
Compound = CCOC(=O)CCCCC1NCCc2ccc(O)c(O)c21 (stereo not drawn); assay = ABTS scavenging; conditions = 10 min, dark; endpoint = IC50; result = 5.98 µM
Compound = COC1OC(C)C(OS(=O)(=O)O)C(OC2OC(C)C(OS(=O)(=O)O)C(OC3OC(C)C(OS(=O)(=O)O)C(OC4OC(C)C(OS(=O)(=O)O)C(OC5OC(C)C(OS(=O)(=O)O)C(OC6OC(C)C(OS(=O)(=O)O)C(OC7OC(C)C(OS(=O)(=O)O)C(OC8OC(C)C(OS(=O)(=O)O)C(OS(=O)(=O)O)C8O)C7O)C6O)C5O)C4O)C3O)C2O)C1O (stereo not drawn); system = human plasma; conditions = 128 µg/mL; scale = relative to: control; endpoint = prothrombin time prolongation; result = 0.98 fold
Compound = CC(C)NCC(SS(=O)(=O)O)c1ccccc1 (stereo not drawn); system = Swiss Webster mice, Schistosoma mansoni infected; conditions = 100 mg/kg; scale = relative to: vehicle control; endpoint = liver weight decrease; result = 31%
Compound = COC1OC(C)C(O)C(OC2OC(C)C(O)C(OC3OC(C)C(O)C(OC4OC(C)C(O)C(OC5OC(C)C(O)C(OC6OC(C)C(O)C(OC7OC(C)C(O)C(OS(=O)(=O)O)C7OS(=O)(=O)O)C6OS(=O)(=O)O)C5OS(=O)(=O)O)C4OS(=O)(=O)O)C3OS(=O)(=O)O)C2OS(=O)(=O)O)C1OS(=O)(=O)O (stereo not drawn); system = human plasma; conditions = 128 µg/mL; endpoint = prothrombin time; result = 14.9 ± 0.2 s
Compound = CC(C)(C)NCC(SS(=O)(=O)O)c1ccccc1 (stereo not drawn); system = Swiss Webster mice, Schistosoma mansoni-infected; conditions = 600 mg/kg single dose on day 1 post-infection, perfusion day 44 post-infection; endpoint = spleen weight; result = 0.41 g
Compound = COC1OC(C)C(OS(=O)(=O)O)C(OC2OC(C)C(OS(=O)(=O)O)C(OS(=O)(=O)O)C2OS(=O)(=O)O)C1OS(=O)(=O)O (stereo not drawn); system = human plasma; conditions = 128 µg/mL; endpoint = prothrombin time; result = 14.8 ± 0.2 s
Compound = COC1CN([C@H]2CC[C@H]([C@@]3(C)Oc4c(Cl)cc(C(=O)NCc5c(SC)cc(C)[nH]c5=O)c(C)c4O3)CC2)C1; assay = RNA-seq, refers to: POLN mouse homolog; system = mouse, HT-1376 xenograft, whole blood; conditions = dose not given; scale = relative to: vehicle; endpoint = log2 fold change; result = 0.516

Excerpt of the above:
Compound = CN1CCCNC(=O)c2cccc(c2)C(=O)NCCCN(C)CCCNc2cccc3c2C(=O)c2cccc(c2C3=O)NCCC1; system = KSN/Slc nude mice, SAS xenograft; conditions = dose not given, day 0, group mean; endpoint = tumour volume; result = 71.7 mm3
Compound = CC[C@H](C)[C@H](NC(=O)[C@@H](NC(=O)c1ccnc(Cl)c1Cl)C(C)(C)C)C(=O)N[C@H](C(=O)N[C@H](C(=O)N[C@H](C(=O)N[C@@H](CCC(N)=O)C(=O)N[C@@H](Cc1c[nH]cn1)C(=O)N[C@H](CC(C)C)C(=O)N[C@@H](CO)C(=O)NCCOCCOCC(=O)N[C@@H](CCCCNC(=O)CC[C@@H]1NC(=O)[C@@H](CCCNC(=N)N)NC(=O)[C@H](CCCNC(=N)N)NC(=O)[C@@H](CCCNC(=N)N)NC(=O)[C@H](CCCNC(=N)N)NC(=O)[C@H](Cc2ccc3ccccc3c2)NC(=O)[C@@H](Cc2ccccc2)NC1=O)C(N)=O)[C@@H](C)O)[C@@H](C)CC)C(C)(C)O; system = mouse, acute lung injury, LPS-induced; conditions = intravenous, 5 mg/kg, 16 h, together with: LPS 10 mg/kg i.p.; scale = relative to: vehicle; endpoint = serum TNF-alpha and IL-6 levels; result = decreased
Compound = CC(C)C[C@H](NC(=O)[C@H](CC(=O)O)NC(=O)CNC(=O)[C@@H](N)CCCNC(=N)N)C(=O)N[C@@H](C)C(=O)N[C@H](C(=O)N[C@@H](CC(C)C)C(=O)N[C@@H](CCCNC(=N)N)C(=O)N[C@@H](CCC(N)=O)C(=O)N[C@@H](CC(C)C)C(=O)N[C@@H](C)C(=O)N[C@@H](CCC(N)=O)C(=O)N[C@@H](CCC(=O)O)C(=O)N[C@@H](CC(=O)O)C(=O)NCC(=O)N[C@H](C(=O)N[C@H](C(=O)NCC(=O)N[C@H](C(=O)N[C@@H](CCCNC(=N)N)C(=O)NCCOCCOCCOCCOCCOCCOCCOCCOCCOCCOCCOCCOCCC(=O)N[C@@H](CS)C(N)=O)C(C)C)C(C)C)C(C)C)[C@@H](C)O; assay = ex vivo NIR imaging; system = NOD/SCID mice, xenograft, H2009 xenograft; conditions = intravenous, 30 µg, 24 h; scale = relative to: H460 xenograft; endpoint = fluorescence signal ratio; result = 40.4 and 121
Compound = CC(C)(C)NCC(SS(=O)(=O)O)c1ccccc1 (stereo not drawn); system = Swiss Webster mice, Schistosoma mansoni-infected; conditions = 600 mg/kg single dose on day 1 post-infection, perfusion day 44 post-infection; endpoint = spleen weight; result = 0.41 g
Compound = COC1CN([C@H]2CC[C@H]([C@@]3(C)Oc4c(Cl)cc(C(=O)NCc5c(SC)cc(C)[nH]c5=O)c(C)c4O3)CC2)C1; assay = RNA-seq, refers to: POLN mouse homolog; system = mouse, HT-1376 xenograft, whole blood; conditions = dose not given; scale = relative to: vehicle; endpoint = log2 fold change; result = 0.516
